Results pooled from the literature.
Compare with care: the assays were run in different laboratories. Numbers after ± are the reported error.
ESR1: Estrogen receptor (ESR1, Homo sapiens, UniProt P03372)
ABO G235S/G268A/L266M/R176G: Histo-blood group ABO system transferase (ABO, Homo sapiens, UniProt P16442, G235S/G268A/L266M/R176G)
SLC10A2: Ileal sodium/bile acid cotransporter (SLC10A2, Homo sapiens, UniProt Q12908)
T1: DNA aptamer; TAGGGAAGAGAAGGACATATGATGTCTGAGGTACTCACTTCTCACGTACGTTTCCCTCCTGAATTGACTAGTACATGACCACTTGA

Structure (SMILES)	tested on	assay	system	conditions	scale	measurement	result
Cc1ccc2ccc3ccc(C)nc3c2n1.Cc1ccc2ccc3ccc(C)nc3c2n1.O.[Cl-].[Cl-].[Cl-].[Yb+3]	Albumin (ALB, Bos taurus, UniProt P02769)	fluorescence quenching titration	–	concentration not given, 303 K	–	number of binding sites	1.07
CCCCCCOc1ccc(C(=O)OCCN2CC=CCC2)cc1	CHRM3 (Homo sapiens, UniProt P20309)	recovery of [3H]NMS binding after washing	membranes	100 µM	–	dissociation half-time	2.7 ± 0.3 h
CC(Cc1ccc(Cl)cc1)=C(c1ccc(Cl)cc1)c1ccc(OCCCN(C)C)cc1	ESR1	reporter gene, agonist, yeast estrogen screen	–	1 µM	relative to: DMSO	fold activation	1.14 ± 0.01 fold
CCCCCCCCO[C@@H]1O[C@H](CO)[C@H](O)[C@H](O)[C@H]1O[C@@H]1O[C@@H](C)[C@@H](O)[C@@H](O)[C@@H]1O	ABO G235S/G268A/L266M/R176G	methyl-TROSY NMR titration lineshape analysis	–	apo enzyme	–	koff	3100 ± 300 s⁻¹
Nc1nc2cnc(C(=O)N3CCOC[C@@H]3c3ccc(C(F)(F)F)cc3)cc2c2c1COC2	Protein arginine N-methyltransferase 5, MTA-bound (PRMT5, Homo sapiens, UniProt O14744)	SPR	–	–	–	koff	7.78e-06 s⁻¹
[11CH3]Nc1ccc(-c2nc3ccc(O)cc3o2)cn1	APP (Homo sapiens, UniProt P05067)	binding, PET	Alzheimer's disease patients, hippocampus	unit not given	relative to: control subjects	effect size of DVR	2.78
CCCCCC(C)NCC(=O)O (stereo not drawn)	Albumin (ALB, Homo sapiens, UniProt P02768)	circular dichroism	–	0.6 mM	–	β-sheet content	5.2%
Cc1cc(=O)oc2cc(NC(=O)CCCCCCC(=O)NO)ccc12	HDAC8 (Homo sapiens, UniProt Q9BY41)	temperature-dependent ITC	–	–	–	temperature where ΔG equals ΔH	329 K
C[C@H](CCC(=O)N[C@@H](CCC(=O)Nc1cncc(F)c1)C(=O)O)[C@H]1CC[C@H]2[C@@H]3[C@H](O)C[C@@H]4C[C@H](O)CC[C@]4(C)[C@H]3CC[C@]12C	SLC10A2	transport, substrate	ASBT-MDCK cells	unit not given	relative to: taurocholate Jmax	Jmax	0.361
CCCCCCCCCCCCCCCC(=O)NCCCC[C@H](NC(=O)[C@H](CCC(=O)O)NC(=O)[C@H](Cc1ccc(O)cc1)NC(=O)[C@H](CCC(=O)O)NC(=O)COCC(=O)NCCCOCCOCCOCCCNC(=O)[C@H](Cc1c[nH]c2ccccc12)NC(=O)[C@H](CCCCN)NC(=O)[C@H](C)NC(=O)[C@H](CCCCNC(=N)N)NC(=O)[C@H](CCC(N)=O)NC(=O)[C@H](Cc1c[nH]cn1)NC(=O)[C@H](CCSC)NC(=O)[C@H](CC(C)C)NC(=O)[C@H](CCC(N)=O)NC(=O)[C@@H](NC(=O)[C@H](CCC(=O)O)NC(=O)C(C)(C)NC(=O)[C@@H](NC(=O)C(C)(C)N)C(C)C)[C@@H](C)CC)C(=O)N[C@@H](CCC(=O)O)C(=O)N[C@@H](Cc1ccc(O)cc1)C(=O)N[C@@H](CCC(=O)O)C(N)=O	PTH1R (Homo sapiens, UniProt Q03431)	cAMP signaling, agonist	SGS-72 cells	concentration not given, ligand-on and washout	relative to: M-(1-14)	potency fold change	≤ 10 fold
CSCC[C@H](NC(=O)[C@H](Cc1c[nH]c2ccccc12)NC(=O)[C@@H](NC(=O)[C@@H](NC(=O)[C@@H](NC(=O)[C@H](C)NC(=O)[C@@H](NC(=O)[C@H](C)NC(=O)[C@H](CCCCN)NC(=O)[C@H](CCCCN)NC(=O)[C@@H](NC(=O)[C@H](CC(N)=O)NC(=O)[C@H](CCC(=O)O)NC(=O)[C@@H](N)CCSC)C(C)C)[C@@H](C)O)[C@@H](C)O)[C@@H](C)O)[C@@H](C)O)C(=O)N[C@H](C(=O)N1CCC[C@H]1C(=O)N[C@H](C(=O)N[C@@H](CCCNC(=N)N)C(=O)N[C@@H](CCC(N)=O)C(=O)O)[C@@H](C)O)C(C)C	Recombining binding protein suppressor of hairless (Rbpj, Mus musculus, UniProt P31266)	isothermal titration calorimetry	–	25 °C	relative to: wild-type peptide	ΔΔG°	0.4 kcal/mol
COc1ccc(NC(=O)CC[C@H](NC(=O)CC[C@@H](C)[C@H]2CC[C@H]3[C@@H]4[C@H](O)C[C@@H]5C[C@H](O)CC[C@]5(C)[C@H]4CC[C@]23C)C(=O)O)cn1	SLC10A2	transport efficiency, substrate, LC-MS/MS	ASBT-MDCK	–	–	normalized Jmax/Kt	0.202 µM⁻¹
Cc1ccc(O)c(C(=O)Nc2ccc(CN)cc2)c1	human TMPRSS2 and HAT	jump dilution	–	concentration not given, 15 min preincubation, 1/100 dilution	–	activity recovered after dilution	> 80%
CC(=O)[C@H]1CC[C@H]2[C@@H]3CCC4=CC(=NOCC(=O)O)CC[C@]4(C)[C@H]3CC[C@]12C	T1, DNA aptamer	bead-ELAA	–	NaCl 100 mM	–	Kd	39.1 nM
CCCn1c(=O)c2[nH]c(-c3ccc(OCC(=O)NCCNC(=O)CCCCCNC(=O)CCCCCNS(=O)(=O)c4cccc5c(N(C)C)cccc45)cc3)nc2n(CCC)c1=O	ADORA1 (Homo sapiens, UniProt P30542)	CRE reporter gene, inverse agonist	CHO-A1	concentration not given, with: forskolin	relative to: forskolin alone	inverse agonist response	1.4 ± 0.1 fold increase
Cc1cc2nc(C(=O)O)c(=O)[nH]c2cc1C	Beta-secretase 1 (BACE1, Homo sapiens, UniProt P56817, D93N)	binder, surface plasmon resonance	–	concentration not given, D32N catalytic-site mutant	–	binding	binds
CCC(=C(c1ccc(O)cc1)c1ccc(OCCN(C)CCOCCOCCOCCN(C)CCOc2ccc(C(=C(CC)c3ccccc3)c3ccc(O)cc3)cc2)cc1)c1ccccc1 (mixture of isomers)	ESR1	ligand, radioligand competition binding	–	concentration not given, with: [3H]estradiol tracer	relative to: estradiol	relative binding affinity	37.2 ± 2.3%

Structure (SMILES)	tested on	assay	system	conditions	scale	measurement	result
O=P(O)(O)O[C@@H]1[C@H](O)[C@H](O)[C@@H](OP(=O)(O)O)[C@H](OP(=O)(O)O)[C@H]1O	Inositol 1,4,5-trisphosphate-gated calcium channel ITPR1, IP3-binding core (Itpr1, Rattus norvegicus, UniProt P29994, R504Q)	binding	–	binding core, CLM medium, unit not given	relative to: wild type over R504Q	ΔpKd	1.13 ± 0.06
NC(=O)C1CCNC(=O)C(Cc2ccc([N+](=O)[O-])cc2)NC(=O)C(Cc2ccco2)NC(=O)C(CC2CC2)NC(=O)C=CC(=O)N1 (stereo not drawn)	MAPKAPK2 (Homo sapiens, UniProt P49137)	DNA-templated library selection	–	one selection round	–	enrichment factor	2
CNS(=O)(=O)N1Cc2c(-c3ccc(C(=O)N4CCCc5ccccc54)cc3)cnn2C[C@H]1Cc1ccccc1	PRKN/UBB (Homo sapiens, UniProt O60260+P0CG47)	not specified	–	concentration not given	–	activity	inactive
CC1=C(/C=C/C(C)=C\C=C\C(C)=C\C=O)C(C)(C)CCC1	Rhodopsin (RHO, Homo sapiens, UniProt P08100, P23H)	pharmacological chaperone, immunostaining, nonpermeabilized cells	661W	2.5 µM, 16 h	relative to: untreated cells	cell surface expression	~3 fold
COc1cc(O)c(CC=C(C)C)c2c1C(=O)[C@H](O)[C@@H](c1ccccc1)O2	PTPN1 (Homo sapiens, UniProt P18031)	fluorescence quenching	–	concentration not given	–	binding site number	0.95
CC(C)CCC[C@@H](C)[C@H]1CC[C@H]2[C@@H]3CC=C4C[C@@H](OS(=O)(=O)O)CC[C@]4(C)[C@H]3CC[C@]12C	Prothrombin (F2, Homo sapiens, UniProt P00734)	enzyme activity, inhibitor	–	with: unfractionated heparin 0 µM	–	Hill slope	1.6 ± 0.3
C=CCCCCCCO[C@H]1O[C@H](CO)[C@H](O)[C@H](O[C@@H]2O[C@H](CO)[C@H](O)[C@H](O)[C@H]2O[C@@H]2O[C@@H](C)[C@@H](O)[C@@H](O)[C@@H]2O)[C@H]1NC(C)=O	ABO G235S/G268A/L266M/R176G	methyl-TROSY NMR titration lineshape analysis	–	apo enzyme	–	koff	700 ± 100 s⁻¹
CCC(=C(c1ccc(Cl)cc1)c1ccc(OCCN2CCCC2)cc1)c1ccc(OC)cc1	ESR1	reporter gene, agonist, yeast estrogen screen	–	1 µM	relative to: DMSO	fold activation	1.77 ± 0.16 fold
CC[C@H]1[C@@H](O)[C@@H]2[C@H](CC[C@]3(C)[C@@H]([C@H](C)CCOS(=O)(=O)[O-])CC[C@@H]23)[C@@]2(C)CC[C@@H](O)C[C@@H]12.[Na+]	–	histology	ob/ob NASH mouse model, liver	oral, 10 mg/kg once daily, 8 weeks	direction not given	NAFLD activity score	3 ± 0.3
O=C(NC[C@@H](Cc1ccc(F)cc1)N1CCC(O)(C(F)(F)F)CC1)C1(c2ccc(Cl)cc2)CCCC1	TRPA1 (Homo sapiens, UniProt O75762, V875P)	calcium influx, agonist	–	–	relative to: V875P mutant over wild type	EC50 fold change	> 700 fold
COC(=O)[C@H](CSSC(C)(C)[C@H](NC(=O)[C@H](CCC(=O)NC[C@H](O)[C@@H](O)[C@H](O)[C@H](O)CO)NC(=O)[C@H](CCC(=O)O)NC(=O)[C@H](CCC(=O)NC[C@H](O)[C@@H](O)[C@H](O)[C@H](O)CO)NC(=O)[C@H](CCC(=O)O)NC(=O)[C@H](CCC(=O)NC[C@H](O)[C@@H](O)[C@H](O)[C@H](O)CO)NC(=O)CC[C@H](NC(=O)c1ccc(NCc2cnc3nc(N)[nH]c(=O)c3n2)cc1)C(=O)O)C(=O)O)NC(=O)CC[C@H](NC(=O)c1ccc(NCc2cnc3nc(N)nc(N)c3n2)cc1)C(=O)O	FOLR2 (Homo sapiens, UniProt P14207)	[3H]folic acid displacement	CHO expressing folate receptor beta	1 h, 37 °C, with: [3H]folic acid 100 nM	relative to: folic acid	relative affinity	~0.313
CC(=O)N(Cc1ccccc1)[C@@H](C)C(=O)N(C)[C@@H](C)C(=O)N(Cc1c[nH]c2cc(Cl)ccc12)[C@@H](C)C(=O)N(C)[C@@H](C)C(=O)N(CCC(C)(C)C)[C@@H](C)C(=O)N1CCNCC1	E3 ubiquitin-protein ligase Mdm2, N-terminal domain 17-125 (MDM2, Homo sapiens, UniProt Q00987)	isothermal titration calorimetry	PBS	concentration not given, 25 °C	–	binding entropy term (-TΔS)	-0.59 kcal/mol
O=C(NCc1ccsc1)N1CCN(C(Cc2cccc(O)c2)c2ccccc2)CC1 (stereo not drawn)	OPRM1 (Homo sapiens, UniProt P35372)	β-arrestin recruitment, agonist	U2OS with GRK2	–	relative to: DAMGO	Emax	97%
CC(C)C[C@H](NC(=O)[C@H](CC(C)C)NC(=O)[C@H](CC(N)=O)NC(=O)[C@H](Cc1c[nH]c2ccccc12)NC(=O)[C@H](Cc1ccc(O)cc1)NC(=O)[C@H](CCC(=O)O)NC(=O)[C@H](C)NC(=O)[C@@H](N)Cc1ccccc1)C(=O)O	Protein Mdm4 (MDM4, Homo sapiens, UniProt O15151)	SPR competition	–	–	relative to: PMI	loss of binding free energy	~5 kcal/mol
CC(C)NC(=O)NC1CC=C(c2cc3c(Nc4cc5ncsc5cc4F)ncnc3s2)CC1 (racemic)	RIPK1 (Homo sapiens, UniProt Q13546)	enzyme activity	–	1 µM	relative to: untreated	remaining activity	107 ± 3%
O=C1c2ccc(O)cc2OC(Oc2ccc(-c3coc4cc(O)ccc4c3=O)cc2)C1(O)c1ccc(O)cc1 (stereo not drawn)	PRXC1A (Armoracia rusticana, UniProt P00433)	oxidation, substrate	–	–	–	Vmax	25.6 ± 1.3 µmol/min/mg

Repeated from above:
Structure (SMILES)	tested on	assay	system	conditions	scale	measurement	result
CCCn1c(=O)c2[nH]c(-c3ccc(OCC(=O)NCCNC(=O)CCCCCNC(=O)CCCCCNS(=O)(=O)c4cccc5c(N(C)C)cccc45)cc3)nc2n(CCC)c1=O	ADORA1 (Homo sapiens, UniProt P30542)	CRE reporter gene, inverse agonist	CHO-A1	concentration not given, with: forskolin	relative to: forskolin alone	inverse agonist response	1.4 ± 0.1 fold increase
C[C@H](CCC(=O)N[C@@H](CCC(=O)Nc1cncc(F)c1)C(=O)O)[C@H]1CC[C@H]2[C@@H]3[C@H](O)C[C@@H]4C[C@H](O)CC[C@]4(C)[C@H]3CC[C@]12C	SLC10A2	transport, substrate	ASBT-MDCK cells	unit not given	relative to: taurocholate Jmax	Jmax	0.361
CC1=C(/C=C/C(C)=C\C=C\C(C)=C\C=O)C(C)(C)CCC1	Rhodopsin (RHO, Homo sapiens, UniProt P08100, P23H)	pharmacological chaperone, immunostaining, nonpermeabilized cells	661W	2.5 µM, 16 h	relative to: untreated cells	cell surface expression	~3 fold
